# Measured values from different studies.
# A part holds a random share of what one study measured. Positions count from the first letter of the parent shown.

# Set 1 — method: protein binding microarray; form: double-stranded DNA, one strand shown; medium: in vitro; concentration: not given; baseline: not given; reading: higher = stronger binding
# Target: Histone acetyltransferase KAT6A, winged helix 1, GST fusion (KAT6A, Homo sapiens, UniProt Q92794, residues 1-85)
# Notes: 8-mer, flanks averaged, mean of 2 arrays, mostly near background
# Target sequence (chain): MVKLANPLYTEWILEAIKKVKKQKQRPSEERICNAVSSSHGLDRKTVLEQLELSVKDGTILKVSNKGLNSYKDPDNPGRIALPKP
Oligonucleotide,E-score
GATTCTTA,-0.063
CGTCAGCA,0.0237
CTGACTTC,0.0228
AGAATTTA,-0.138
AACCGGCC,0.316
CTGATATC,-0.138
CTAAAACC,0.0439
CATCTGGG,-0.27
AGATTCGC,0.132
ATGAATTG,-0.106
ACGTGGGC,-0.0867
AAGAAAAC,-0.0711
AAAAGGAT,-0.294
AAATCCCG,0.216
AATGTATC,-0.181
AGGTTTAA,-0.14
TCACCGGA,-0.0195
AGCTTATC,-0.0962
CCTAACTC,-0.123
CTCATTAA,-0.0671
CCCACTGC,-0.103
GAGTTCTA,-0.182
GAGGCCGC,0.314
AGATACTG,-0.134
CAACGAGA,-0.205

# Set 2 — target: CCNB1, cyclin fold, Cln2 fusion (human); method: yeast growth competition, sequencing; medium: yeast; notes: weak parent motif; baseline: not given; reading: higher = stronger binding
# Parent: RB1 docking peptide (human); PKPLKKLRFDIEG
Variant,normalised enrichment score
K2S,1.13
F9Y,0.169
K5P,0.4
P1L,-0.316
P3Q,0.551
G13E,0.634
K2N,0.817
F9W,0.373
D10G,1.67
F9Q,1
L7D,-0.247
P1D,2.39
L4M,1.1
K6H,0.842
K2H,0.497
I11Y,0.617
F9V,0.569
I11V,0.324

# Set 3 — method: protein-binding microarray; form: double-stranded DNA, one strand shown; medium: in vitro; concentration: 250 nM; notes: 60-bp whole probe; together with: salmon DNA 0.4 mg/ml; baseline: random background probes; reading: higher = stronger binding; constant ends, left off below: GCCTAGCAC … GTCTTGATTCGCTTGACGCTGCTG
# Target: Interferon regulatory factor 7, full length, phosphomimetic (IRF7, Homo sapiens, UniProt Q92985, residues 1-503, S101K/S471D/S472D/S475D/S476D/S477D/S483D/S484D/S487D)
# Construct (chain): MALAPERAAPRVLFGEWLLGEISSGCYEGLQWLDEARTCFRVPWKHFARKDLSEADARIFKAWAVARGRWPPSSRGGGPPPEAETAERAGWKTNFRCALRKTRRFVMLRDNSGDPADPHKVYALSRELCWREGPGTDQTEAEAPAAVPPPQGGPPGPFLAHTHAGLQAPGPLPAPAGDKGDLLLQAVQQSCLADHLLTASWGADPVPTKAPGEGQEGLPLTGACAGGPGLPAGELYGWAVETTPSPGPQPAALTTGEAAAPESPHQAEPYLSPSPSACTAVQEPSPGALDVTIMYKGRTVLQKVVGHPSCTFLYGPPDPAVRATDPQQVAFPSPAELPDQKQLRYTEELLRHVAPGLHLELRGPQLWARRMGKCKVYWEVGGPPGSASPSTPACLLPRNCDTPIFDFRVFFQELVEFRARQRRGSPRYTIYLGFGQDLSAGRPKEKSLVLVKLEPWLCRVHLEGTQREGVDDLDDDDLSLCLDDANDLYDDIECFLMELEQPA
Oligonucleotide,log fluorescence
GACGGTATCGACCCTGGGGACGTGCTA,-0.562 z-score
TTAGATCTCAGGCTCGATTAGTGCTAG,0.575 z-score
GACGGTTTCGACACGGGGGACGTGCTA,5.04 z-score
TTAGAACTGACACTGGATTAGTGCTAG,-0.306 z-score
TTAGATATCTGTTTCGATTAGTGCTAG,3.96 z-score
TTAGGTATCCTTCGCCTTTAGTGCTAG,0.11 z-score
TCACCTTCCCCTCTAGGACTGTGCTAG,0.887 z-score
GACGAACTGAGTTTAGAGACGTGCTAG,-0.128 z-score
GTGAACCGGTCTCTCAGACCGTGCTAG,0.151 z-score
TTAGGTATCTGGACTGGGTTAGTGCTA,-0.58 z-score
TGTAGCTGGAGAAGTAAAACGTGCTAG,-0.3 z-score
TCATAACTTATTCTCTAACTGTGCTAG,0.505 z-score
TCAGATATAGGATAACGAACTGTGCTA,0.279 z-score
GACGGACTGGTCTTTCGGGACGTGCTA,-0.834 z-score
TCAGCTTTGCCTTCAGCACTGTGCTAG,-0.615 z-score
TTCACTTTCCAAAGCGTGAGGTGCTAG,0.82 z-score
GACGATATCGTGTTTCGAGACGTGCTA,0.877 z-score
GACGATCACAGTCTCGAGACGTGCTAG,0.279 z-score
GACGGACTGGGGATTCGGGACGTGCTA,-0.53 z-score
GACGGTATCCTTTACCTGACGTGCTAG,-0.102 z-score
TTATGTTTCGGACTGGGTTAGTGCTAG,1.54 z-score
TGTCTTTTCATTTTCTTTAAGTGCTAG,2.08 z-score
TTGTCTTTTCATTTTCTTTAGTGCTAG,1.35 z-score
TTAGATTCCGGGACTGGATTAGTGCTA,0.543 z-score

# Set 4 — method: universal PBM; form: double-stranded DNA, one strand shown; medium: in vitro; concentration: not given; reading: higher = stronger binding
# Target: Sal-like protein 4, full length isoform B (SALL4, Homo sapiens, UniProt Q9UJQ4-2, residues 1-616)
# Notes: 8-mer, flanks averaged, mean of replicates
Oligonucleotide,E-score
AGGTGGGG,-0.175
GCTGCGAC,-0.0709
AACACACC,0.0118
GATCCACA,0.07
AGCCGAAT,-0.131
CAAATTGA,-0.0034
GTCCCAAC,-0.0628
CCGGCCTA,-0.18
ACAACTGA,0.126
ACTACATC,0.0868
GGTTATGA,0.301
ACTAGACC,-0.00888
GGGAACGA,-0.253
GAGTCCAA,-0.124
GGGGTTAA,-0.0723
ATGTGTAG,0.174
ACGGCTTA,-0.0615
CAGAGCTC,-0.211

# Set 5 — method: RNA Bind-n-Seq; form: RNA; medium: in vitro; concentration: not given; baseline: input RNA pool; reading: higher = stronger binding
# Target: RING finger protein unkempt homolog, zinc fingers 1-6, GST-SBP tag (UNK, Homo sapiens, UniProt Q9C0B0, residues 30-357)
# Notes: RNA with constant flanks, human-mouse chimeric sites, ends assumed
# Constant ends, left off below: GGGAGUUCUACAGUCCGACGAUC … CAACAGAGGAUUGAGCAUCA
# Target sequence (chain): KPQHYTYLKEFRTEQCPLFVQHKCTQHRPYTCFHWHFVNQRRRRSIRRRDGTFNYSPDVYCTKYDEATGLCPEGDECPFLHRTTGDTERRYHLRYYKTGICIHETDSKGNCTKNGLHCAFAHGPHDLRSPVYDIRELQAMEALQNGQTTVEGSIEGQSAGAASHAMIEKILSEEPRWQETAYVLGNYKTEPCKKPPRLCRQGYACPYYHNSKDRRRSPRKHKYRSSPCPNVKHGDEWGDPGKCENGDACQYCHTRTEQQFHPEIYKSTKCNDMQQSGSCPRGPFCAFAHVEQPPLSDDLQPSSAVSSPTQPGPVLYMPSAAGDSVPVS
Oligonucleotide,bound/input enrichment [ratio]
AACAGAUUGUCUUUAAGCAUUCCAAGCGAGAAUGCUGAAAUAGUCAUUGUUGCCCAUGUGCCUUCUGACUGAGCUUUAAUGCUGUUCCAUGUUACAUCUUUCCUUCAUUGCAUAUUUGUU,0.277
ACCAUUUCUGAAUACACGGCUUUGUGUGUAGUUCACUUACGGUAUUAAAUUAUUAUUCUGCUUAGCUUAAAGUAAGGAUAAUUGCAUUUAAAGAGGUUACUGAAUGUUACUCUGAAACUU,0.199
GAGUCGAUUAUGGAAACAACAAUUCGUUAUCUUGCAGCCUCAGUGUUCACUUGCUUGGCGAUAGCAUAUUGGGAUUUUAGGUUCUGGAAGGAGAACUGACGAUGAUGCUGCCGCUGCUGC,0.448
CUGAGGAUACCACUGAAAGAGACAUUAAAGAAUCAUUUGAGGGCUCUGUUCGUGCAAGAAUAGUCACUGAUCGGGAAACUGGUUCUUCCAAAGGGUUUUGGUUUUGUGACUUUAAUAGUG,0.425
GUGCCCUUCUCGCUGCUGCGGAGCCCGCCCAGCUGGGCAUUCCGGGACUGGUACCCUCCGCAUAGCCGCCUCUUCGAUCAAGCUUUCGGGGUGCCCCGGUUGCCCGAUGAGUGGUCGCAG,0.0799
UUUGUUUGUAACUUAUCUGUAAAAGGUGUUUCUCCCUUACUGUCAAAAAAUAUGCAUGUAUAGUAAUUAGGACUUCAUUCCUCCAUGUUUUCUUCCCUUAUCUUACUGUCAUUGUCCUUA,0.848
AAAGAUCUACUGAGGCAAGGCAGCAAAUUUAGGAGAGAUGUAUCAACAAUAUUGAUAGAGUUAGGAUUCCAAAUUAAAAAGAAAACUAAGACAUUAUACAUCAACAAAGCCAAUGUGUGG,3.28
GAGCCAAGCCGGCAGUUUGUAAAGGACUCAAUUCGGCUGGUUAAAAGAUGCACCAAACCCGACAGAAAAGAAUUCCAGAAGAUUGCCAUGGCUACAGCUAUAGGAUUUGCUAUCAUGGGA,0.266
ACCUCCCAGGCCUGGGACACCCCACCCAAGAAAGAAAGAAAGUUUUUGGCGUUUCUUUUCCUUCCCCAUACAAAGUGAUUACAGUUUCCCCCGCAAGGGUCUAUCGAAGGGCUUGACGGA,0.402
GAGUCGAUUAUGGAAACAACAAUUCGUUAUCUUGCAGAGCUUCGGUGCACUUGCUUGGCGAUAGCAUUGGGGUUUUAUAGGUUCUGGAAGGAGAACUGACGAUGAUGCUGCCGCUGCUGC,0.224
AAAGAGAAACUAAAGCAACUAAUAGAGAAGAGGAUUGGCAAAGAGAAUUUCAUAGAGGAAACUAGGAUUUAUUAGCAACAUGAGUUAUAUUCCAGAGCGUCUCAGAAACCCCAGCCAAAC,8

# Set 6 — target: ATF5, bZIP domain (human); method: DHFR protein complementation; medium: yeast; baseline: wild-type JUN-FOS pair; reading: higher = stronger binding
# Notes: single substitutions, most at no-binding floor
# Parent: JUN, bZIP domain (human); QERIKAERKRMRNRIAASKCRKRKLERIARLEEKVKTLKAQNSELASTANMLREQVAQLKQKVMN; partner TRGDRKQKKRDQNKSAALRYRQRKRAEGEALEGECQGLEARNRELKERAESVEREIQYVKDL
Variant,binding fitness
E32A,-1.26 natural log
E54I,-1.52 natural log
Q41D,-1.56 natural log
L31C,-1.52 natural log
A57L,-1.57 natural log
E54A,-1.49 natural log
I28M,-1.56 natural log
K34W,-1.28 natural log
A40S,-1.39 natural log
A49R,-1.48 natural log
E33I,-1.22 natural log
N42H,-1.48 natural log
E44N,-1.49 natural log
L59R,-1.56 natural log
L38Q,-1.53 natural log
S43N,-1.24 natural log
V56R,-1.51 natural log
E32T,-1.54 natural log
M51V,-1.49 natural log
L31D,-1.47 natural log
N42P,-1.55 natural log
S47G,-1.39 natural log
S43V,-1.46 natural log
A40L,-1.3 natural log
L45W,-1.38 natural log

# Repeated from above (set 6):
Variant,binding fitness
I28M,-1.56 natural log
K34W,-1.28 natural log
A40S,-1.39 natural log
A49R,-1.48 natural log
E33I,-1.22 natural log
N42H,-1.48 natural log
E44N,-1.49 natural log
L59R,-1.56 natural log
L38Q,-1.53 natural log
S43N,-1.24 natural log
V56R,-1.51 natural log
E32T,-1.54 natural log
M51V,-1.49 natural log
L31D,-1.47 natural log
N42P,-1.55 natural log
S47G,-1.39 natural log
S43V,-1.46 natural log
A40L,-1.3 natural log
L45W,-1.38 natural log
